Experimental data of several laboratories.
Every numbered part comes from another study and shows a few of its results, in no order. Changes are numbered by the printed parent chain.

Study 1 — technique: RNA Bind-n-Seq; molecule type: RNA; sample: in vitro; concentration: 200 nM; notes: whole 134-nt RNA, ends assumed; added: 150 mM KCl; baseline: input library; direction: higher = stronger binding; quantity: log2 enrichment
Target: Ras GTPase-activating protein-binding protein 1, full length (G3BP1, Homo sapiens, UniProt Q13283)
UniProt Q13283, sequence (whole entry, looked up): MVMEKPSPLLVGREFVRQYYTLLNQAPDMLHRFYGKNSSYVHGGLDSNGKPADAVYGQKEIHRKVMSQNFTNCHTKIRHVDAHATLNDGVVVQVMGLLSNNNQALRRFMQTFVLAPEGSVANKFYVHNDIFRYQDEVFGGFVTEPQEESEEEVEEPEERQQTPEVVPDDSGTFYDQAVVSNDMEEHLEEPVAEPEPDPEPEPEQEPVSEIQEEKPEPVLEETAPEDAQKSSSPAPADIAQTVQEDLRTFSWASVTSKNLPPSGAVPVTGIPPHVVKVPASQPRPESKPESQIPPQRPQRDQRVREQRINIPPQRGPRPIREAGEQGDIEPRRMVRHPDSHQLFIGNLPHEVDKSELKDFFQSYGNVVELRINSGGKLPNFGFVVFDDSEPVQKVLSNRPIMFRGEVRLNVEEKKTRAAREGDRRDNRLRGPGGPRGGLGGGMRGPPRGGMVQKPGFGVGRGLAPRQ
Shared flanks, not repeated: GGGAGUUCUACAGUCCGACGAUC … UGGAAUUCUCGGGUGUCAAGG
Oligonucleotide = CACAGACAACACGCACCCACACAGACACAGAGGGAAGGGGUUGGGAUGGGGACAGGGUGCACAGCAGGGCGGGGUAGGACCCCAGUCCCU; value = 1.93
Oligonucleotide = AAGUCCUGUGCUACACAUCGUAUGUACCGAAUCGGUUUUUGGUUUUUGGAAAAAGGAAAGUAUUAUGUUACGCCGUUCGGAUCUGCACUU; value = -1.36
Oligonucleotide = UCAAGUCCUGUGCUACACAUCGUAUGUACCGAAUCGGGGAAGGGAAGGGAAGGGGAAAGUAUUAUGUUACGCCGUUCGGAUCUGCACUUC; value = 1.01
Oligonucleotide = UCCUGUGCUACACAUCGUAUGUACCGAAUCGGGGUUUUUGGGGAAAAAGGGGAAAGGGGAAAGUAUUAUGUUACGCCGUUCGGAUCUGCA; value = 0.87
Oligonucleotide = CUCAAGUCCUGUGCUACACAUCGUAUGUACCGAAUCGGUGGUUUUUUUGGUGGAAAGUAUUAUGUUACGCCGUUCGGAUCUGCACUUCCA; value = -0.302
Oligonucleotide = GUCCUGUGCUACACAUCGUAUGUACCGAAUCGGGAAAAAAAGGGAGGGAAAAAAAGGGAAAGUAUUAUGUUACGCCGUUCGGAUCUGCAC; value = -0.229
Oligonucleotide = CCUCAAGUCCUGUGCUACACAUCGUAUGUACCGAAUCGGGCGGCGGGCGGGGAAAGUAUUAUGUUACGCCGUUCGGAUCUGCACUUCCAG; value = 0.681
Oligonucleotide = ACCAUGCAGGUGGGCAUCUUUGGGAAGUGGGGCAAGGGGGGGAUAGGGAGGAAAGUAACACUUUGGGAACAGGUGGUCCCAGGUCGUUUC; value = 1.24
Oligonucleotide = CACAGACAACACGCACCCACACAGACACAGAGAAAAGGGGUUGGGAUGGGGACAGGGUGCACAGCAGGGCGGGGUAGGACCCCAGCCCCU; value = 1.88

Study 2 — technique: RNA Bind-n-Seq; molecule type: RNA; sample: in vitro; concentration: 365 nM; baseline: no-protein control; direction: higher = stronger binding; quantity: RBNS enrichment (R)
Target: RNA binding protein fox-1 homolog 2, RRM domain, GST-SBP tag (RBFOX2, Homo sapiens, UniProt O43251-10, residues 100-194)
Notes: natural RNA segment, single round, ends assumed
Shared flanks, not repeated: GGGAGUUCUACAGUCCGACGAUC … UGGAAUUCUCGGGUGCCAA
Target sequence (chain): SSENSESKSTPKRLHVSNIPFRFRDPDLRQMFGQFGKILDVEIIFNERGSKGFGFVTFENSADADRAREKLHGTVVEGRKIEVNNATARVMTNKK
Oligonucleotide = CCUCUCAGAGCCUGAAACUUACCUCUUAGCUUUGGCUACAGGCAUGGCCUAGUACCUGAUGGAGCCUGUAUAGCUCAGCUAAUCAAAUGGAGGCUCAGGUCCAUCAGAAU; value = 0.375
Oligonucleotide = CUGGAGUGAGGGUCAGAACUGAUUUGUUCUGUCUAUGUUUCAGCACUGGUGUGUGUUCUCUAUAAGCUCCUGGCCCACUUGGCUUCACUUGAGCAGAAUGACUUGACUGA; value = 0.655
Oligonucleotide = CUUCAGUCCUCGUCCUCUCUUUGUGGCUGGCUCCCAGCCUUCUCUUUCCUCUUGAGGAUACUUAGGGUAAACUGGAUCCUUCCUGCUCAAGGAUCCUCAUUUGUAUACCU; value = 0.452
Oligonucleotide = CAUUUUAUAAUUUCCAUAUUAAUUUCAAAUAUGCUCGUGUUAUUCUUCAGUGAUUUCCACAAUUGUGCAUUUUAUUCUUUGGUUUAAGUACUGAAGCAUAUAAUGAAAGU; value = 0.814
Oligonucleotide = CCUGGGGGGAGCCAAACAGGCUGGAGACGUUUAAAAGACCGUUUCAAAAGAGAUUUACUUUUUUAAAGGACUUUAUCUGAACAGAGAGAUAUAAUAUUUUUCCUAUUGGA; value = 0.574
Oligonucleotide = CCUCUGAAGUUGAUUGUCUUAUAUUCCCGCUAUGAGAUAUCUCAAAGAUUCUUAAUCAAGAGUUUCAGAGUUUAGAAACUCGGAUGUUGGGCAAGUUAGGAAAUAUUCCA; value = 0.473
Oligonucleotide = GGCCCUGGAAGGUCCUGGCACACGCAAUUCUUGGGUCUCAUUCCAUCCAGGUUCCAGAGAGAACAUUAGAUCUUAGCUCUUGACAAAACGGAUGGCAGAUACUGGCCUUU; value = 0.182
Oligonucleotide = AAAAAAAAAAAUCCCUAUUUAAGAUUCUGAAGGUGCUACCAUUAUUUUGCCACAGACUUUGAAGAAACUUUUGGAUGUGGGGCAUCAUCCGCAUCUUUCUCUCUCCUCCA; value = 0.672

Study 3 — technique: protein-binding microarray; molecule type: double-stranded DNA, one strand shown; sample: in vitro; concentration: not given; direction: higher = stronger binding; quantity: E-score
Target: Protein C-ets-1 (ETS1, Homo sapiens, UniProt P14921, residues 1-441, K379A, full length assumed)
Notes: k-mer, scored over probes, only values ≥0.25
Construct (chain): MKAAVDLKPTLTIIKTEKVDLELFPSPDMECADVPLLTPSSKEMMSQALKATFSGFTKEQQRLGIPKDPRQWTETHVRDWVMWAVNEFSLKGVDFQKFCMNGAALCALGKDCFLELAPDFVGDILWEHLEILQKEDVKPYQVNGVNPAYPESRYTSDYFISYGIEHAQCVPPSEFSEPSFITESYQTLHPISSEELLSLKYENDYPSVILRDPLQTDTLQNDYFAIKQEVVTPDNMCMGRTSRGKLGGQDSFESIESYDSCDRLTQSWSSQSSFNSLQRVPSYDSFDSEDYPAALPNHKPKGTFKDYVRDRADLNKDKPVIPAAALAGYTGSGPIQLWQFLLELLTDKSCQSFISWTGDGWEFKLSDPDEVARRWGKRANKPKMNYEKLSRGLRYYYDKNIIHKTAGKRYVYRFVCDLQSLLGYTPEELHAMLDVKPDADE
Oligonucleotide = ACTTTCCG; value = 0.273
Oligonucleotide = CACTCCGG; value = 0.29
Oligonucleotide = CGTCGACC; value = 0.262
Oligonucleotide = GGGTGGGA; value = 0.326
Oligonucleotide = GGTAATTA; value = 0.27
Oligonucleotide = ATGCACCG; value = 0.338
Oligonucleotide = ACCGGGTG; value = 0.386
Oligonucleotide = TCCCCGGA; value = 0.286
Oligonucleotide = ACCGGTAT; value = 0.464
Oligonucleotide = CCATCCGG; value = 0.291
Oligonucleotide = GTGATCAC; value = 0.282
Oligonucleotide = CCCCGCCA; value = 0.337
Oligonucleotide = CCCGGAAA; value = 0.419
Oligonucleotide = CTATATAC; value = 0.303
Oligonucleotide = CACCGACG; value = 0.369
Oligonucleotide = ACACCGAC; value = 0.376
Oligonucleotide = GTTCCGGA; value = 0.365
Oligonucleotide = GGACTACA; value = 0.283

Study 4 — target: CCND3, cyclin fold, Cln2 fusion (human); technique: yeast growth competition, sequencing; sample: yeast; notes: weak parent motif; baseline: not given; direction: higher = stronger binding; quantity: normalised enrichment score
Parent: E2F3 docking peptide (human); PPAKRRLELGESG
Change = PPAKARLELGESG [R5A]; value = 0.0854
Change = PPAKRRAELGESG [L7A]; value = 0.169
Change = PPAKRRLELGEAG [S12A]; value = 0.0727
Change = APAKRRLELGESG [P1A]; value = 0.132
Change = PPAKRRLEFGESG [L9F]; value = -0.119
Change = PPAKRRLALGESG [E8A]; value = 0.157
Change = PPAARRLELGESG [K4A]; value = 0.141
